Experimental data collected from several papers.
Every numbered part comes from another study and shows a few of its results, in no order. Changes are numbered by the printed parent chain.

Block 1 — target: CCNB2, cyclin fold, Cln2 fusion (human); method: yeast growth competition, sequencing; matrix: yeast; setting: weak parent motif; relative to: not given; direction: higher = stronger binding
Starting sequence: CDC6 docking peptide (human); TLKGRRLVFDNQL
| Change | normalised enrichment score |
| --- | --- |
| D10A | 0.104 |
| D10Y | 0.757 |
| L2P | 0.193 |
| F9K | 0.633 |
| R6A | -0.0122 |
| Q12S | -0.204 |
| V8P | 0.281 |
| F9L | 0.466 |

Block 2 — method: protein binding microarray; molecule type: double-stranded DNA, one strand shown; matrix: in vitro; concentration: not given; relative to: not given; direction: higher = stronger binding
Target: Histone acetyltransferase KAT6A, winged helix 1, GST fusion (KAT6A, Homo sapiens, UniProt Q92794, residues 1-85)
Setting: 8-mer, flanks averaged, mean of 2 arrays, mostly near background
Target sequence (chain): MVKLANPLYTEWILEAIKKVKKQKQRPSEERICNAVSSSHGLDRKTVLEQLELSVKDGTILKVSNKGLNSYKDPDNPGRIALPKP
| Sequence | E-score |
| --- | --- |
| AATCATCG | -0.043 |
| AACCCCAG | -0.275 |
| ACTCTCCC | -0.0337 |
| ACCAGCCG | 0.219 |
| AGTATGAC | -0.0635 |
| AGCCCACG | -0.121 |
| ATTCCGGC | 0.169 |
| TCAACCAA | -0.218 |

Block 3 — method: RNA Bind-n-Seq; molecule type: RNA; matrix: in vitro; concentration: 1 µM; setting: whole 134-nt RNA, ends assumed; with: 150 mM KCl; relative to: input library; direction: higher = stronger binding
Target: Ras GTPase-activating protein-binding protein 1, C-terminal RGG region (G3BP1, Homo sapiens, UniProt Q13283)
Sequence of UniProt Q13283 (whole entry, looked up): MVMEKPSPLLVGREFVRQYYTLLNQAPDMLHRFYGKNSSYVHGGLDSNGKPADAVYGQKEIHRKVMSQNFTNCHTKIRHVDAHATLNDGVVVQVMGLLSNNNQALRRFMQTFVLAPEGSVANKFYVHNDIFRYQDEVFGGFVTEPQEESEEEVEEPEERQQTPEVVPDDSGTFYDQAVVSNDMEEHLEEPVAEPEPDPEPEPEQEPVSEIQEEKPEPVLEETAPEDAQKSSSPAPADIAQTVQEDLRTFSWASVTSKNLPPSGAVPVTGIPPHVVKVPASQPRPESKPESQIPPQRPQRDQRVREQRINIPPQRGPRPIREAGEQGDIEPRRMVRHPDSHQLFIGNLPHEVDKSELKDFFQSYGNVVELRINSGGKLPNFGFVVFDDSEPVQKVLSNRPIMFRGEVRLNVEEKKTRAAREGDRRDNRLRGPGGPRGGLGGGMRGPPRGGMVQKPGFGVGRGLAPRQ
Shared flanks, not repeated: GGGAGUUCUACAGUCCGACGAUC … UGGAAUUCUCGGGUGUCAAGG
| Sequence | log2 enrichment |
| --- | --- |
| UGGCCGGUGGCCGUGAGAACACGCUGUGUGGCUGAAAAGUGAAGGCAAGAGCUGAUUUGGCCUCUGUGCUCCCCUCCGCAAGGGGAUCGU | -0.551 |
| GUCCUGUGCUACACAUCGUAUGUACCGAAUCGGGCCCCCCGGGCCCCCCGGCCCCCCGGAAAGUAUUAUGUUACGCCGUUCGGAUCUGCA | -1.19 |
| CCUCAAGUCCUGUGCUACACAUCGUAUGUACCGAAUCGGGGAGGAGGGGAGGGAAAGUAUUAUGUUACGCCGUUCGGAUCUGCACUUCCA | 0.455 |
| AAGUCCUGUGCUACACAUCGUAUGUACCGAAUCGGAAAAGGGAAAAGGGAAAAGGGGAAAGUAUUAUGUUACGCCGUUCGGAUCUGCACU | -0.881 |
| GCAGGAAGUAAAAACAAAUGGAAAUGCUUCGGAUAGUGGCAGGGGUGGGGGUUGCUAAGGAAAGGGUGGGAUGGGAGUGGAAAAAGAGUU | 1.85 |
| UCCUCAAGUCCUGUGCUACACAUCGUAUGUACCGAAUCGGUUUGGAGGUGGAAAGUAUUAUGUUACGCCGUUCGGAUCUGCACUUCCAGC | -1.13 |
| CAAGUCCUGUGCUACACAUCGUAUGUACCGAAUCGGGGUUGGGUUGGGGUUGGGGAAAGUAUUAUGUUACGCCGUUCGGAUCUGCACUUC | 2.76 |
| UCCUGUGCUACACAUCGUAUGUACCGAAUCGGGGUUUUUGGGGAAAGGGGAAAAAGGGGAAAGUAUUAUGUUACGCCGUUCGGAUCUGCA | 1.83 |

Other studies, line by line
| Substance | target | assay | test system | conditions | how to read | measurement | value |
| --- | --- | --- | --- | --- | --- | --- | --- |
| PhoQ, residues 284 288 289 292 302 303 SACGEM | PhoP, residues 12 14 15 18 19 VQALL (Escherichia coli, UniProt P23836) | Sort-seq, measured: YFP reporter | E. coli | PhoQ-PhoP variant library, with: 10 µM Mg2+ | relative to: high Mg2+ state, higher = stronger signaling | fold induction | 10.5 |

Repeated from above (block 1):
| Change | normalised enrichment score |
| --- | --- |
| L2P | 0.193 |
| F9K | 0.633 |
| R6A | -0.0122 |
| Q12S | -0.204 |
